Published values from different studies.
Lines come from different studies, so protocols differ. ± marks the error that the study gave.

Cn1cncc1[C@@](N)(c1ccc(Cl)cc1)c1ccc2c(c1)c(-c1cccc(Cl)c1)cc(=O)n2C
Cmax (healthy human subjects, plasma; oral, 50 mg, fasted): 110 ng/mL

CC1=C(c2cccc(O)c2)[C@H](c2ccc(OCCN3CC(CF)C3)cc2)Oc2ccc(O)cc21
Cmax (human, plasma; oral, 1000 mg once daily, steady state geometric mean): 158 ng/mL

Cc1ncnc2c1ccn2[C@@H]1C[C@H](Oc2cc(C(F)F)c(F)c3c2CNCC3)[C@@H](O)[C@H]1O
Cmax (human; 4 mg twice daily, multiple dose, geometric mean): 59.8 ng/mL

CC1(COc2ccc3c(c2)ncn3-c2ccc3cccc(N4CCC(N)CC4)c3n2)COC1
Cmax (human patients, recurrent/progressive HGG or DIPG, serum; oral, 130 mg/m^2, day 1, median): 345 nM

COc1cc2nccc(Oc3ccc(NC(=O)c4cc5c(n(-c6ccccc6)c4=O)CCCC5=O)nc3)c2cc1OC
Cmax (human patients; oral, day 29, with venetoclax 6 mg once daily): 565 ng/mL

Cc1cc(-c2nccc3c2ccn3CC(=O)Nc2ccc(-c3cnccn3)cn2)ccn1
Cmax (human, plasma; oral, 15 mg once daily, day 16, geometric mean): 202 nM

CC[C@H](C)[C@@H]([C@@H](CC(=O)N1CCC[C@H]1[C@H](OC)[C@@H](C)C(=O)N[C@@H](Cc1ccccc1)C(=O)NCCCO)OC)N(C)C(=O)[C@@H](NC(=O)[C@H](C(C)C)N(C)C)C(C)C
Cmax (human patients, plasma; intravenous, 36 mg/m², cycle 1 geometric mean): 6.73 ng/mL

CC(C)c1ncc(C(=O)N2CCOC3(CCN(Cc4ccc(F)c(CCNC[C@H](O)c5ccc(O)c6[nH]c(=O)sc56)c4)CC3)C2)s1
Cmax (healthy human, plasma; inhaled or intranasal, dose not given): 0.45 nM

CCN(CC)CCNC(=O)c1c(C)[nH]c(/C=C2\C(=O)Nc3ccc(F)cc32)c1C
Cmax (human, normal hepatic function (Child-Pugh), plasma; single dose, geometric mean, total drug): 21.9 ng/mL

O=C(NO)c1ccc(CN(c2cnccn2)c2cnccn2)cc1
Cmax (human patients, phase I, plasma; oral, 800 mg twice daily, day 1): 1710 ng/mL

C[C@H](CCC(=O)NCCS(=O)(=O)O)[C@H]1CC[C@H]2[C@@H]3CC[C@@H]4C[C@H](O)CC[C@]4(C)[C@H]3C[C@H](O)[C@]12C
Cmax (human, plasma; concentration not given, endogenous baseline diurnal): 127 ± 27 nM

N[C@](CO)(CCc1ccc(Sc2cccc(OCc3ccccc3)c2)cc1Cl)COP(=O)(O)O
Cmax (human fasted, whole blood; 3 mg MOC, added: cyclosporin 100 mg b.i.d.): 1.81 ng/mL

CC(C)n1nc(-c2ccc3oc(N)nc3c2)c2c(N)ncnc21
Cmax (human, plasma; oral, 2 mg once daily, cycle 1 day 15): 33.4 ng/mL

N[C@]1(C(=O)O)[C@H]2[C@@H](C[C@@H]1F)[C@@H]2C(=O)O
Cmax (human, both sexes, plasma; oral, 10 mg, fasted, single dose): 62.3 ng/mL

Nc1ccc(-c2nc([C@H]3CCc4cc(-c5cc(Cl)ccc5-n5cnnn5)cc(=O)n43)c(F)[nH]2)c(F)n1
Cmax (human, plasma; oral, 250 mg once daily, day 14): 3700 ng/mL

CN(CC#N)C(=O)C[C@H](Nc1nc2ccccc2[nH]1)c1cccc(C(F)(F)F)c1
Cmax (human; intravenous infusion, 1 mg/kg, 5 mg/mL formulation): 3540 ± 1180 ng/mL

COc1ccc(F)cc1C(=O)NCc1ccc(-c2nn([C@@H](C)C(F)(F)F)c(N)c2C(N)=O)cc1
Cmax (human, plasma; oral, 200 mg single dose, alone arm, rifampin interaction study): 4480 ng/mL

NC1(C(=O)N[C@@H](CCO)c2ccc(Cl)cc2)CCN(c2nc[nH]c3nccc2-3)CC1
Cmax (human patients, plasma; dose not given, cohort 160/400, cycle 0, geometric mean): 1200 ng/mL

N[C@@H]1c2cccnc2[C@H](OC(=O)N2CCC(n3c(=O)[nH]c4ncccc43)CC2)CC[C@H]1c1cccc(F)c1F
Cmax (human, plasma; oral, dose not given, single dose, mean, added: rifampin): 349 ng/mL

COc1cc(-c2cnc3cc(OCCN4CCOCC4)ccn23)cc2c1C(=O)N(CC(F)(F)F)CC2
Cmax (LC-MS; human, plasma; oral, 350 mg, day 5, added: methotrexate 7.5 mg): 1750 ng/mL

A few entries again:
CC(C)c1ncc(C(=O)N2CCOC3(CCN(Cc4ccc(F)c(CCNC[C@H](O)c5ccc(O)c6[nH]c(=O)sc56)c4)CC3)C2)s1
Cmax (healthy human, plasma; inhaled or intranasal, dose not given): 0.45 nM
